Results pooled from the literature.
Parts stem from different laboratories: compare values within a part only. Changes are numbered by the printed parent chain.

Sample 1
Target: Sal-like protein 4, full length isoform B (SALL4, Homo sapiens, UniProt Q9UJQ4-2, residues 1-616)
Technique: universal PBM
Form: double-stranded DNA, one strand shown
Matrix: in vitro
Tested at: not given
Notes: 8-mer, flanks averaged, mean of replicates
Reading: higher = stronger binding
Sequence	E-score
AGTTCAGG	-0.0952
CCGATTGA	-0.115
GGTTACTA	-0.00671
GTGGGACA	-0.175
ACGACCCG	-0.115
ACAGGTCG	-0.135
AGCGTATA	0.193
ACGTCGAG	-0.181

Sample 2
Target: Centromere-binding protein 1, full length, His-tagged (CBF1, Saccharomyces cerevisiae, UniProt P17106, residues 1-351)
Chain of UniProt P17106 (whole entry, looked up): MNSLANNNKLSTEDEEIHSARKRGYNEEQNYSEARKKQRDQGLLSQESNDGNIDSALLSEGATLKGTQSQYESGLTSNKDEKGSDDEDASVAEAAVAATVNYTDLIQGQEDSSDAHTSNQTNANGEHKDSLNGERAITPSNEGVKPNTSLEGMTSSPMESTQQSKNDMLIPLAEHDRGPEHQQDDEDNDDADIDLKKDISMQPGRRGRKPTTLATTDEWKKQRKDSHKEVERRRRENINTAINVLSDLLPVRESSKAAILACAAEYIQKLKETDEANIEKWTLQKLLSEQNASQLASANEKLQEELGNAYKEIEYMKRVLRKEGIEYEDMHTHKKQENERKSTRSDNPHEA
Technique: competition protein-binding microarray
Form: double-stranded DNA, one strand shown
Matrix: in vitro
Tested at: 2 µM
Notes: whole 60-bp probe, lowest competitor level
Together with: Pho4 competitor, 0.05 µM
Reading: higher = stronger binding
All sequences stand within: … GTCTTGATTCGCTTGACGCTGCTG
Sequence	fluorescence intensity [a.u.]
CGGGGTTAAGTTTGGTACGTGGGTGGCTTGCAGCAG	63
CGTCCTAGCGATTGACCCGTGGGTGCCATGAGGAAG	93.8
TGCGCAACAACTTGCAAAGTGGGTGTATGTCTAGAA	65.6
AGATTAGTCTATTTGACCGTGCCGATTTTGCACTTT	93.8
CTTCTGTAAATTTGAATGGTGGGTGGACGCGCCCCG	87.3
TTCTTAATTTTTTTGCACGTTTTTCAGCTTCTGGTT	286
GTCTTGTCTCATTGTCAAGTGGGTGTCCCCACTTCA	90.7
AAATTACTAAGTTGCGCTGTGGGTGACGCCGTATGA	65.4

Sample 3
Target: RING finger protein unkempt homolog, zinc fingers 1-6, GST-SBP tag (UNK, Homo sapiens, UniProt Q9C0B0, residues 30-357)
Technique: RNA Bind-n-Seq
Form: RNA
Matrix: in vitro
Tested at: not given
Notes: RNA with constant flanks, human-mouse chimeric sites, ends assumed
Reference: input RNA pool
Reading: higher = stronger binding
All sequences stand within: GGGAGUUCUACAGUCCGACGAUC … CAACAGAGGAUUGAGCAUCA
Residues (chain): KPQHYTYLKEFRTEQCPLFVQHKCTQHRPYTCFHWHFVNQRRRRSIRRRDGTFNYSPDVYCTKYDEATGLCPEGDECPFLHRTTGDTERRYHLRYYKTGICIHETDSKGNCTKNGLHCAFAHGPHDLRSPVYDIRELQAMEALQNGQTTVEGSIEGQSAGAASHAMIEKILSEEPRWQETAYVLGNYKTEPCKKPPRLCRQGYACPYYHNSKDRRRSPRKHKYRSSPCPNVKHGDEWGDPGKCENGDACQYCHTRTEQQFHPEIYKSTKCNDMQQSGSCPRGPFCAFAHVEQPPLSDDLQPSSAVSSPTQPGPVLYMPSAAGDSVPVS
Sequence	bound/input enrichment [ratio]
GGACAUCUGUCAAAUUGUUAUGUUCCUGUGAAACAAGUGAACACUCUGAUACACUUCAUCUGCUUGUACAUUUAACUGAUAGAGAAAUGUAAAUAUGUUAAUCCAAGCAAUGUGUCACUU	0.343
GUUGCCAGCUUCCGGUUCCGUUGGGCUAGCAAGCUCCCUGAGCUACGUGUCUCUACGCUCUCAAUCCCGGUUGGGUAAAACAUGGAUCAGGUAAUGCAGUUUGUGGAGCCCAGCCGGCAG	0.0734
AGAAUCUGUGACUGGCUUUACUUAAUUGGUCAUUGAUAUCUCAACAAACAUGGAGAUAAGAUUAGAAAUCUUGACAUCAACAGGUAUUAAGCAGAAAAAACCAUGGCCACGUGUCUCCUG	0.205
GAUAAGAAAAGCUUGUUGGAGACCCGCUUGCAUGUCACUGGUAGAGACCUGAGGUGUCAAAUAGCUGAAACCUUUGGACUUCAAGAAAAUUACAUCAAGAUCGUAAUAAAUAAGAAACAG	0.257
CAGGGCAUCAUCUCUCGAGCUGUUAAACACCUGUUCAAGAGUAUUGAUGAGAAAAAGACCUCAGCGAUUAAAAACGGGCUGCCCCCUCCUGAAUUCAAAGUGAAUGCCCAGUUCCUAGAG	0.335
CAGUCCCCGUGUCCCAGUGCAGGACGAUGUGAACAAAUCGAAGACAUGGACCCUCUAUUGUAGUUCUUUUUUUAAAUAAUGUGCUAUUAUUGUUUGUCUUUUUUUUUUUUUUUUUAAAGA	15.9
UCUUAACUUAUUCAUUUAACUUAUUUUUAUAGCUAGAGCAAUAUUGUUAGUCUUAGUCAAUAGCUCACAUUUUUUGAGAAGCAUGCCCUCCCUGUCCAUUUGUCUUAUAACAUGACCCAG	137
CUGGCCUGGCCCUCCCCAGGGGCCUCCUUUCGUAUAGUCACUGCUUCUGCAUCAGAUAUUUUUAGCUGCAACUCCCUACUGGGUGGGGCACCCAUUUCAGGCAGAAGGUUUUGGUACCCU	0.401

Further values, each from its own experiment
Starting sequence: viral docking peptide; KGVKRKLFAEDSS; partner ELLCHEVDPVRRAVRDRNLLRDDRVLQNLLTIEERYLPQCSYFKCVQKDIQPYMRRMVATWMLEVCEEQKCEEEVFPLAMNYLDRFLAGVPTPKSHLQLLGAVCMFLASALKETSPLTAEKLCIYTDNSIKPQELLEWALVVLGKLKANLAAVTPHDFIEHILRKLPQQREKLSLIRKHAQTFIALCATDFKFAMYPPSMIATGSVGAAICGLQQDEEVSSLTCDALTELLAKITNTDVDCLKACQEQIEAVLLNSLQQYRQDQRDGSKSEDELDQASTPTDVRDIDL
Substitution	target	test	system	setting	how to read	measurement	result
V3Y	CCND2, cyclin fold, Cln2 fusion (human)	yeast growth competition, sequencing	yeast	weak parent motif	reference: not given, higher = stronger binding	normalised enrichment score	0.229

Excerpt of the above (sample 2):
Sequence	fluorescence intensity [a.u.]
CGTCCTAGCGATTGACCCGTGGGTGCCATGAGGAAG	93.8
AAATTACTAAGTTGCGCTGTGGGTGACGCCGTATGA	65.4
CGGGGTTAAGTTTGGTACGTGGGTGGCTTGCAGCAG	63
CTTCTGTAAATTTGAATGGTGGGTGGACGCGCCCCG	87.3
